Measured values of several laboratories.
Compare with care: the assays were run in different laboratories. Several values in a cell are separate wells, animals, samples, runs or records. Numbers after ± are the reported error.
PPO3: PPO3 (Agaricus bisporus, UniProt C7FF04)
USP14: Ubiquitin carboxyl-terminal hydrolase 14 (USP14, Homo sapiens, UniProt P54578)
Gria2/Glutamate receptor 3: Gria2/Glutamate receptor 3 (Rattus norvegicus, UniProt P19491+P19492)

Structure (SMILES)	target	assay	test system	conditions	scale	endpoint	result
COc1ncc2nc(C)n(Cc3ncc(S(N)(=O)=O)cc3F)c2c1-c1ccccc1	Glutamate NMDA receptor; GRIN1/GRIN2B (GRIN1/GRIN2B, Homo sapiens, UniProt Q05586+Q13224)	agonist, cell-based		10 µM		activation	1.15%
CCCCCC=CC=C1C(=O)C=CC1CC=CCCCC(=O)O (centres unmarked)	Outer kinetochore KNL1 complex subunit ZWINT (ZWINT, Homo sapiens, UniProt O95229)	competitive isoTOP-ABPP, measured: ZWINT cysteine peptide	Ramos soluble proteome	100 µM, added: iodoacetamide probe	baseline: DMSO over compound-treated, higher = stronger cysteine blockade	isoTOP-ABPP competition ratio	3
CC[C@H](C)[C@@H]1NC(=O)[C@H](Cc2ccccc2)NC(=O)[C@H](CCC(=O)O)NC(=O)[C@H](CCCNC(=N)N)NC(=O)CNC(=O)[C@@H](NC(=O)[C@H](CC(C)C)NC(=O)[C@H](CCCNC(=N)N)NC(=O)[C@@H](NC(=O)CNC(=O)[C@H](Cc2ccc(O)cc2)NC(=O)[C@@H]2CCCN2C(=O)[C@H](C)NC(=O)[C@H](C)NC(=O)[C@@H](N)CCCNC(=N)N)C(C)C)CSSC[C@@H]2NC(=O)[C@@H](NC(=O)[C@H](CO)NC(=O)[C@H](CO)NC(=O)[C@H](CO)NC(=O)[C@H](CC(C)C)NC(=O)CNC(=O)[C@H](C)NC(=O)[C@H](CC(C)C)NC(=O)[C@@H](NC(=O)[C@@H](N)CC(=O)O)C(C)C)CSSC[C@H](NC(=O)CNC(=O)[C@H](Cc3c[nH]c4ccccc34)NC(=O)[C@H](CCCCN)NC2=O)C(=O)N[C@@H](CO)C(=O)N[C@@H](CCCCN)C(=O)N[C@@H](CO)C(=O)N[C@@H](CCC(=O)O)C(=O)N[C@@H]([C@@H](C)CC)C(=O)N[C@@H](CO)C(=O)N[C@@H](CO)C(=O)N[C@@H](CC(C)C)C(=O)N[C@H](C(=O)O)CSSC[C@@H](C(=O)NCC(=O)NCC(=O)N[C@@H](CO)C(=O)N[C@@H](CCCNC(=N)N)C(=O)N[C@@H](Cc2c[nH]c3ccccc23)C(=O)O)NC(=O)[C@H]([C@@H](C)O)NC(=O)[C@H](Cc2ccccc2)NC(=O)[C@H]([C@@H](C)CC)NC(=O)[C@H](C(C)C)NC(=O)[C@H](C)NC(=O)[C@H](CCCNC(=N)N)NC1=O	Relaxin-3 receptor 2 (RXFP4, Homo sapiens, UniProt Q8TDU9, D104A)			D104A mutant	baseline: wild type	change in Emax	-25.7% and -25% and -12.8%
Brc1ccccc1-c1cc(CN2c3ccccc3C=Cc3ccccc32)on1	PPO3	enzyme activity, inhibitor		concentration not given		apparent Km	5.24 mM
O=C(N[C@@H](Cc1ccc(OCCCCC2CCNCC2)cc1)C(=O)O)c1nc2ccccc2o1.O=C(O)C(F)(F)F	Integrin alpha-IIb/beta-3 (Homo sapiens, UniProt P05106+P08514)	inhibitor, flow cytometry	washed platelets, human	8000 nM, added: ADP and Alexa647-fibrinogen	baseline: untreated	fibrinogen binding	0
N[C@H]1CC[C@H](Nc2nccc(-c3cccnc3Oc3ccc(NC(=O)NC4CC4)c4ccccc34)n2)CC1	Phosphatidylethanolamine-binding protein 1 (Homo sapiens, UniProt P30086)	kinobead competition pulldown, measured: PEBP1	HEK293/HCT116 lysate mixture	10 µM, 1 h, 4 °C	lower = stronger competition	log2 LFQ intensity	18.7 and 19.1 and 22 and 19.8
OCc1nnc2n1N=C(c1ccc(Cl)cc1)CS2	USP14	enzyme activity, inhibitor		17 µM		inhibition	30%
CSCC[C@@H]1NC(=O)[C@H]([C@@H](C)O)NC(=O)[C@H](CCCNC(=N)N)NC(=O)CNC(=O)CC[C@@H](C(=O)N[C@@H](C)C(=O)N[C@@H](CCCNC(=N)N)C(=O)N[C@@H](CCCCN)C(=O)N[C@@H](CO)C(=O)N[C@H](C(=O)NCC(=O)NCC(N)=O)[C@@H](C)O)NC(=O)[C@H](CCC(N)=O)NC1=O	Histone-lysine N-methyltransferase SETD7 (SETD7, Homo sapiens, UniProt Q8WTS6)	histone H3 methylation, inhibitor, western blot		100 µM, 30 min, enzyme 500 nM, added: full-length H3, SAM 30 µM	baseline: no inhibitor	H3K4me1 level	70 ± 9%
CCCC[C@H](NC(=O)[C@H](CCC(N)=O)NC(=O)[C@H](CCC(=O)O)NC(=O)[C@@H]1CCCN1C(=O)[C@@H](NC(=O)[C@H](C)NC(=O)[C@H](CC(N)=O)NC(=O)[C@H](CC(=O)O)NC(=O)CNC(=O)[C@@H]1CCCN1C(=O)[C@H](Cc1ccc(O)cc1)NC(=O)[C@@H](NC(=O)[C@@H]1CCCN1C(=O)[C@H](CCC(=O)O)NC(=O)[C@H](CC(C)C)NC(=O)[C@@H]1CCCN1C(=O)[C@H](C)N)C(C)C)[C@@H](C)O)C(=O)N[C@@H](C)C(=O)N[C@@H](CCC(N)=O)C(=O)N[C@@H](Cc1ccc(O)cc1)C(=O)N[C@@H](C)C(=O)N[C@@H](CCCCNC(=O)c1ccc2c(c1)C(=O)OC21c2ccc(N(C)C)cc2Oc2cc(N(C)C)ccc21)C(=O)N[C@@H](CC(=O)O)C(=O)N[C@@H](CC(C)C)C(=O)N[C@@H](CCCNC(=N)N)C(=O)N[C@@H](CCCNC(=N)N)C(=O)N[C@@H](Cc1ccc(O)cc1)C(=O)N[C@H](C(=O)N[C@@H](CC(N)=O)C(=O)N[C@@H](CCCC)C(=O)N[C@@H](CC(C)C)C(=O)N[C@H](C(=O)N[C@@H](CCCNC(=N)N)C(=O)N1CCC[C@H]1C(=O)N[C@@H](CCCNC(=N)N)C(=O)N[C@@H](Cc1ccc(O)cc1)C(N)=O)[C@@H](C)O)[C@@H](C)CC	Neuropeptide Y receptor type 4 (NPY4R, Homo sapiens, UniProt P50391, N285A)	NanoBRET binding		Nluc-tagged receptor N285A, unit not given	net BRET ratio	BRETmax	0.043 ± 0.0009
O=C(O)C1CCCN(CCOC23CC4CC(CC(C4)C2)C3)C1 (centres unmarked)	Sodium- and chloride-dependent glycine transporter 1 (SLC6A9, Homo sapiens, UniProt P48067)	cell-free assay		1 µM		remaining signal	102%
COc1ccc(C2(C(=O)N3CCC(Nc4nc5ccccc5c(=O)[nH]4)CC3)CC2)cc1	MRGPRD (Homo sapiens, UniProt Q8TDS7, Y245A)	miniGq recruitment, agonist, BRET	HEK293T	Y245A mutant		Hill slope	1.44
c1ccc(OC[C@H]2CN(CCN3CCc4ccccc43)CCO2)nc1	5-hydroxytryptamine receptor 2B (HTR2B, Homo sapiens, UniProt P41595)	calcium mobilization, FLIPR				Hill slope	1.5 ± 0.51
O=C1c2sc(-c3ccc(N4CCC(F)C4)nc3F)nc2CCN1c1cccnc1 (centres unmarked)	TAR DNA-binding protein 43, aggregated (TARDBP, Homo sapiens, UniProt Q13148)	saturation autoradiography	human, FTLD-TDP type A brain sections	19.53 nM		specific binding	172 nM
CN(C)c1c(C(C#N)=C(C#N)C#N)c2ccccc2n1C	USP14	enzyme activity, inhibitor		17 µM		inhibition	23%
COc1cc(Nc2nccc(-c3cnn4nc(OC)ccc34)n2)cc(C(F)(F)F)c1	Phosphatidylinositol 4,5-bisphosphate 3-kinase catalytic subunit alpha isoform (PIK3CA, Homo sapiens, UniProt P42336, C420R)	binding		1 µM		remaining binding	93%
CC[C@@H](C)[C@@H](NC(=O)[C@@H](Cc1ccc(O)cc1)NC(=O)[C@H]1CCCN1C(=O)[C@@H](CCCNC(=N)N)NC(=O)[C@H](N)Cc1c[nH]cn1)C(=O)N[C@H](C)C(=O)N[C@H](Cc1c[nH]cn1)C(=O)N[C@H](CCCNC(=N)N)C(=O)N[C@@H](C(=O)N[C@H](Cc1ccc(O)cc1)C(=O)N[C@H](CO)C(=O)N[C@H](Cc1ccccc1)C(=O)NCC(=O)NCC(=O)NCC(=O)N[C@@H](CCCCNC(=O)CCCC[C@@H]1SC[C@@H]2NC(=O)N[C@@H]21)C(N)=O)C(C)C	Programmed cell death 1 ligand 1 (Cd274, Mus musculus, UniProt Q9EP73)	flow cytometry, measured: Cd274		concentration not given, 6 h	baseline: 0 h	relative surface expression	0.906 and 0.831 and 0.915
O=C(O)Cc1cc2c(cc1C(=O)c1ccccc1)OCO2	Gria2/Glutamate receptor 3	glutamate-evoked current, whole-cell patch clamp	HEK-293T	concentration not given, glutamate alone after washout, added: glutamate		current amplitude after recovery	512 ± 37 pA
CC(=O)NCC1CCCCN1c1nc(N2CCN(c3nnc[nH]3)CC2)nc(N2CC3C(CCOc4cc(-c5scnc5C)ccc4CNC(=O)[C@@H]4C[C@@H](O)CN4C(=O)[C@@H](NC(=O)C4(F)CC4)C(C)(C)C)C3C2)n1 (some centres unmarked)	VHL/BRD9, with Elongin B/C (Homo sapiens, UniProt P40337+Q9H8M2)	native mass spectrometry		5 µM, added: BRD9 and VCB at 5 µM	baseline: unbound BRD9	ternary complex formation	81%
C#CCOC(=O)[C@]1(C)C=C(C(=O)Nc2cccc(C(=O)Nc3ccc(C)c(Nc4nccc(-c5cccnc5)n4)c3)c2)C(=O)CC1	Mitogen-activated protein kinase 9 (MAPK9, Homo sapiens, UniProt P45984)	enzyme activity, inhibitor		0.006774 µM, unit not given	baseline: vehicle	remaining activity	0.923
COC(=O)Cc1cc2c(cc1C(=O)c1ccccc1I)OCO2	Gria2/Glutamate receptor 3	glutamate-evoked current, whole-cell patch clamp	HEK-293T	concentration not given, weighted tau, 1 ms pulse, added: glutamate		deactivation time constant	2.3 ± 0.2 ms
O=C1C(=CO)c2ccccc2-c2ccccc21	USP14	enzyme activity, inhibitor		17 µM		inhibition	100%
CC1(C)C[C@@H](Nc2cccc(-c3sc(C(=O)O)c(OCC(=O)O)c3Cl)c2)CCN1S(=O)(=O)Cc1cccc(NC(=O)CN2CCC(c3ccc4c(c3)oc(=O)n4C3CCC(=O)NC3=O)CC2)c1 (some centres unmarked)	Tyrosine-protein phosphatase non-receptor type 2 (PTPN2, Homo sapiens, UniProt P17706)	degrader, bio-layer interferometry		250 nM, biotinylated protein immobilised	higher = more binding	BLI binding response	0.571 a.u. and 0.52 a.u.
OC[C@H]1O[C@@H](Oc2cc3c(O)cc(O)cc3[o+]c2-c2cc(O)c(O)c(O)c2)[C@H](O)[C@@H](O)[C@H]1O	PPO3	fluorescence quenching		338 K		binding free energy ΔG	-7.3566 ± 0.00239 kcal/mol

Excerpt of the above:
Structure (SMILES)	target	assay	test system	conditions	scale	endpoint	result
COc1ncc2nc(C)n(Cc3ncc(S(N)(=O)=O)cc3F)c2c1-c1ccccc1	Glutamate NMDA receptor; GRIN1/GRIN2B (GRIN1/GRIN2B, Homo sapiens, UniProt Q05586+Q13224)	agonist, cell-based		10 µM		activation	1.15%
Brc1ccccc1-c1cc(CN2c3ccccc3C=Cc3ccccc32)on1	PPO3	enzyme activity, inhibitor		concentration not given		apparent Km	5.24 mM
N[C@H]1CC[C@H](Nc2nccc(-c3cccnc3Oc3ccc(NC(=O)NC4CC4)c4ccccc34)n2)CC1	Phosphatidylethanolamine-binding protein 1 (Homo sapiens, UniProt P30086)	kinobead competition pulldown, measured: PEBP1	HEK293/HCT116 lysate mixture	10 µM, 1 h, 4 °C	lower = stronger competition	log2 LFQ intensity	18.7 and 19.1 and 22 and 19.8
